Values quoted from earlier work, collected from citations in different studies.
Lines come from different studies, so protocols differ. ± marks the error that the study gave. Converted amounts (≈) assume the structure as drawn.
UniProt Q9H422, sequence (whole entry, looked up): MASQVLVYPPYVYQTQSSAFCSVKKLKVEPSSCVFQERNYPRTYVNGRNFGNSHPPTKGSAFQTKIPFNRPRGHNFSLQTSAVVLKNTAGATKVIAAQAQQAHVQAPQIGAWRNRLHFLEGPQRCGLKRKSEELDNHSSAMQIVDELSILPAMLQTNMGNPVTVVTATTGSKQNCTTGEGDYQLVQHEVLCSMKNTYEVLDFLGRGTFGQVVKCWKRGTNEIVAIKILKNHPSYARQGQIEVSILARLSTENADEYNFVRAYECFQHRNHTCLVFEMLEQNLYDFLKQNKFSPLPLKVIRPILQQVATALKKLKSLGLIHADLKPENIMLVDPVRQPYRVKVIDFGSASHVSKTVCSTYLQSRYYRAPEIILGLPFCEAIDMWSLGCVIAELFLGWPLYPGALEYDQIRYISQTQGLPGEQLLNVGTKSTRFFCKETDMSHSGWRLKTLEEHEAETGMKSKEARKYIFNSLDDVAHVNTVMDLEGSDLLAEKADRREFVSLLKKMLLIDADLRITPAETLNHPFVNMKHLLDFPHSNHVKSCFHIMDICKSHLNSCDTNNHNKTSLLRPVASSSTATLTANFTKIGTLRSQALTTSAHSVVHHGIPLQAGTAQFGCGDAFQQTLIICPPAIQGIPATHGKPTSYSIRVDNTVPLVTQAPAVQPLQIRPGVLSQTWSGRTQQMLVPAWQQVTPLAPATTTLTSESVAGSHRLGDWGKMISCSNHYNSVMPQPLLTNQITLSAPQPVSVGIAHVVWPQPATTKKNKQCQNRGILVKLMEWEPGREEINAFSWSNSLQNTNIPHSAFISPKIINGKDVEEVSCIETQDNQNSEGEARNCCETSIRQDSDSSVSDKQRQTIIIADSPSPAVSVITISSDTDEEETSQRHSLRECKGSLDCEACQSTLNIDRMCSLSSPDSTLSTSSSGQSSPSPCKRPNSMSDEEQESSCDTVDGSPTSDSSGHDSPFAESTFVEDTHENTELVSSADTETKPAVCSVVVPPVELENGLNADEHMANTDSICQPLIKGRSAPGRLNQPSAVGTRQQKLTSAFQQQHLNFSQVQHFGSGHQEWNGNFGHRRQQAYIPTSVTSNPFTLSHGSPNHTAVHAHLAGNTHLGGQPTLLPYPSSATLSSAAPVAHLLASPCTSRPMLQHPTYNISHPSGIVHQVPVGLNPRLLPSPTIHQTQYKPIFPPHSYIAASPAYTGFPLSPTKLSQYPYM

COc1cc(N2CCC(N3CCN(C)CC3)CC2)ccc1Nc1ncc(Cl)c(Nc2ccccc2P(C)(C)=O)n1  Cmax (healthy subjects; dose not given, CYP3A inhibition, single dose, with: itraconazole 200 mg twice daily): 401 ng/mL
Nc1cc(C(F)(F)F)c(-c2nc(N3CCOCC3)nc(N3CCOCC3)n2)cn1  remaining activity (HIPK3 (Homo sapiens, UniProt Q9H422); enzyme activity; 10 µM; reference: untreated): 78%
CC1(C)S[C@@H]2[C@H](NC(=O)[C@H](N)c3ccccc3)C(=O)N2[C@H]1C(=O)O  MIC (Escherichia coli; clinical isolate RKI-No_581/16): > 16 µg/mL
CC(=O)O[C@@]12CO[C@@H]1C[C@H](O)[C@@]1(C)C(=O)[C@H](O)C3=C(C)[C@@H](OC(=O)[C@H](O)[C@@H](NC(=O)OC(C)(C)C)c4ccccc4)C[C@@](O)([C@@H](OC(=O)c4ccccc4)[C@H]21)C3(C)C  Cmax (plasma; concentration not given, total, steady state): 2970 nM
C=CC(=O)N1CCC([C@@H]2CCNc3c(C(N)=O)c(-c4ccc(Oc5ccccc5)cc4)nn32)CC1  Cmax (human patients; oral, 160 mg once daily, day 1): 376 ± 192 ng/mL
CNCc1cc(-c2ccccc2F)n(S(=O)(=O)c2cccnc2)c1  Cmax (human, plasma; 15 mg single dose, observed clinical data): 13.6 ng/mL
Cc1nsc(-c2nnc3n2CCN(C(=O)c2ccc(F)cc2)[C@@H]3C)n1  Cmax (human; oral, 45 mg, single dose, formulation): 527 ng/mL
CC(C)COc1ccc(CNC(=O)N(Cc2ccc(F)cc2)C2CCN(C)CC2)cc1  Cmax (plasma; concentration not given, total concentration): 25 nM
CNC(C)C1CCC(N)C(OC2C(N)CC(N)C(OC3OCC(C)(O)C(NC)C3O)C2O)O1 (stereo not shown)  MIC (Escherichia coli; clinical isolate RKI-No_593/16): 2 µg/mL (≈ 4.19 µM)
CCCN(CCC)CCc1cccc2c1CC(=O)N2  Cmax (plasma; concentration not given, total concentration): 141 nM
O=C(O)C[C@H](O)C[C@H](O)/C=C/c1c(C2CC2)nc2ccccc2c1-c1ccc(F)cc1  Cmax (plasma; concentration not given, total, steady state): 30 nM
Nc1c(Br)cc(Br)cc1CN[C@H]1CC[C@H](O)CC1  Cmax (plasma; concentration not given, total, literature data): 45 nM
COc1ccc2[nH]c([S+]([O-])Cc3ncc(C)c(OC)c3C)nc2c1 (stereo not shown)  Cmax (plasma; concentration not given, total, steady state): 3500 nM

For quick reference, copied from above:
COc1cc(N2CCC(N3CCN(C)CC3)CC2)ccc1Nc1ncc(Cl)c(Nc2ccccc2P(C)(C)=O)n1  Cmax (healthy subjects; dose not given, CYP3A inhibition, single dose, with: itraconazole 200 mg twice daily): 401 ng/mL
